Measured values gathered from unrelated publications.
Compare with care: the assays were run in different laboratories. Numbers after ± are the reported error.

Compound = CC(C)(Sc1ccncc1-c1ccc(C#N)c2ccccc12)C(=O)OC1OC(C(=O)O)C(O)C(O)C1O (stereo not drawn); system = adult men, urine; setting = oral, 15 mg verinurad, severe renal impairment; how to read = reference: impaired over normal renal function; endpoint = renal clearance ratio (0-72 h); result = 9.78%
Compound = CC(C)[C@H](NC(=O)CNC(=O)[C@H](CCC(N)=O)NC(=O)[C@H](C)N)C(=O)O; system = human; setting = 10 mg/kg single dose, LOQ 0.5 ng/mL; endpoint = time to concentration below LOQ; result = 45 min
Compound = CC(C)CCCC(C)CCCC(C)CCO[C@@H]1O[C@H](CO)[C@@H](O[C@H]2O[C@H](CO)[C@@H](O)[C@H](O)[C@H]2O)[C@H](O)[C@H]1O (stereo partly drawn); test = dynamic surface tension; system = water; setting = 0.0072 mmol/L; endpoint = diffusion coefficient; result = ~2.9e-10 m²/s
Compound = CC[C@H](C)[C@H](NC(=O)[C@H](CCC(=O)O)NC(=O)[C@H](CC(C)C)NC(=O)[C@H](CC(=O)O)NC(=O)[C@H](CC(=O)O)NC(=O)[C@@H]1CCCN1C(=O)[C@H](CCCNC(=N)N)NC(=O)[C@@H]1CCCN1C(=O)[C@@H](N)CCCNC(=N)N)C(=O)O; system = carbonate buffer; setting = 5 d, pH 10, 37 °C; endpoint = backbone amide stability; result = stable
Compound = COCC1CN(C2CCN(c3cc(OC)c(Nc4ncc(Br)c(Nc5ccc6c(c5P(C)(C)=O)OCCO6)n4)cc3C)CC2)C1; system = human patients; setting = oral, 10 to 240 mg once daily; endpoint = treatment-related Diarrhea, all grades; result = 22.2%
Compound = COc1cc(NC(C)=O)c2c(c1O)-c1c(OC)c(OC)cc3c1C(C2)N(C)CC3 (stereo not drawn); system = rat kidney homogenate; setting = 50 µg/mL, 4 h, room temperature, short-term storage; endpoint = remaining compound; result = 91.7 ± 2%
Compound = N=C(N)NCCC[C@@H]1NC(=O)[C@H](Cc2c[nH]c3ccccc23)NC(=O)[C@@H](CC2CCCCC2)NC(=O)[C@@H]2CCCN2C(=O)[C@@H](NC(=O)CCc2ccccc2)CCCNC1=O; system = C57BL/6J mouse, spinal cord; setting = intraperitoneal, 1 mg/kg, single dose, two-compartment model; endpoint = alpha distribution rate constant; result = 4.64 h⁻¹
Compound = C=C(c1ccc(C(=O)O)c(F)c1)c1cc2c(cc1C)C(C)(C)C=CC2(C)C; system = Sprague-Dawley rat, male; setting = oral, 100 mg/kg, 2 h, sesame oil vehicle; endpoint = blood cholesterol; result = 98 ± 9 mg/dL
Compound = CN1CC[C@H](c2c(O)cc(O)c3c(=O)cc(/C=C/c4c(Cl)cccc4Cl)oc23)[C@H](O)C1.O=C(O)CNC(=O)c1ccccc1; test = dissolution, USP paddle apparatus; system = water, 0.25% SLS; setting = concentration not given, sink conditions; endpoint = AUC(0-t); result = 17500 ± 1540 ng·h/mL
Compound = [Cl-].[Cl-].[Ru+2].c1ccc2nc3c4cccnc4c4ncccc4c3nc2c1.c1ccncc1.c1ccncc1.c1ccncc1.c1ccncc1; system = red blood cells, rabbit; setting = 5 µM, 2 h, 37 °C; endpoint = hemolysis; result = 0.07 ± 0.01%
Compound = CCCC[C@@H]1NC(=O)[C@@H](NC(=O)[C@H](CCC(=O)O)NC(=O)CNC(=O)CN2CCN(CC(=O)O)CCN(CC(=O)O)CCN(CC(=O)O)CC2)CCCCNC(=O)C[C@@H](C(N)=O)NC(=O)[C@H](C(C)C)NC(=O)[C@@H]2CCCN2C(=O)[C@H](CCCNC(=N)N)NC(=O)CNC(=O)[C@H](Cc2c[nH]c3ccccc23)NC(=O)[C@H](CCCNC(=N)N)NC(=O)[C@@H](Cc2ccccc2)NC(=O)[C@H](Cc2c[nH]cn2)NC(=O)[C@H](CCC(=O)O)NC1=O [gallium-67 labelled]; system = B16/F1 melanoma-bearing C57 mice, urine; setting = intravenous, dose not given, 2 h, together with: blocking peptide 10 µg; endpoint = urinary excretion; result = 92 ± 1.5%
Compound = Oc1ccc2ccccc2c1/N=N/c1ccccc1; system = Sprague-Dawley rats both sexes, whole blood; setting = oral, 50 mg/kg; endpoint = elimination rate constant; result = 0.00023 s⁻¹
Compound = CC(C)c1cnc(-c2cc(Cl)ccc2F)cc1Nc1ccncc1C(=O)NC(CO)CO; test = refers to: pyrexia; system = human patients; setting = oral, dose not given, grade 3; endpoint = patients with related SAE; result = 0%
Compound = O=C(NCCCN(CCCCN(CCCNC(=O)c1cccc(=O)n1[O-])C(=O)c1cccc(=O)n1[O-])C(=O)c1cccc(=O)n1[O-])c1cccc(=O)n1[O-].[89Zr+4]; test = radio-TLC; system = PBS; setting = 1 d, pH 7.4, 37 °C, together with: Fe^3+ 10-fold excess; endpoint = intact complex; result = 89.8 ± 5.4%
Compound = Cn1c(=O)oc2ccc(-c3ccc(CC(C#N)NC(=O)C4CNCCCO4)c(F)c3)cc21 (stereo not drawn); system = human; setting = oral, 10 mg once daily, treatment-related AE, multiple ascending dose; endpoint = acne incidence; result = 0%
Compound = CC(O)c1nc(-c2ccc3c(c2)CCC3NC(=O)c2cnn(C)c2)no1 (stereo not drawn); system = human, pooled urine; setting = oral, 20 mg; how to read = reference: dose; endpoint = radioactive dose excreted in urine; result = 2.85%
Compound = COCCOCCOCCOCCOCCOCCOCCOCCC(=O)NCCCc1cc2cc3nc(cc4[nH]c(cc5nc(c(OC)c1[nH]2)C(=O)C5(C)C)cc4CCc1ccc(C(=O)O)cc1)CC3(C)C; system = DMF; setting = room temperature; endpoint = intersystem crossing yield; result = 0.5
Compound = COC(=O)/C=C/C(=O)c1ccc(OC)cc1; test = LC-MS/MS; system = processed rat plasma, autosampler; setting = 2.5 ng/mL, 12 h, 4 °C, post-preparative; endpoint = recovery; result = 99.2 ± 4.48%
Compound = C#CCOc1ccc(/C=C2\SC(=O)N(CC(=O)NCc3ccccc3)C2=O)cc1; test = inverse Kirkwood-Buff integrals; system = binary solvent mixture; setting = 298.15 K, mole fraction x1 0.35; endpoint = Kirkwood-Buff integral G1,3; result = -266 cm³/mol
Compound = Cc1ccc(OCC(=O)O)cc1; system = Sprague-Dawley rat Crl:CD(SD), female, plasma; setting = oral, 30 mg/kg/day of parent drug, day 90, 90-day repeated dosing; endpoint = t1/2; result = 2.43 h
Compound = O=C(CCCCC[N+]#[C][99Tc-5]([C]#[N+]CCCCCC(=O)N[C@H]1C(O)O[C@H](CO)[C@@H](O)[C@@H]1O)([C]#[N+]CCCCCC(=O)N[C@H]1C(O)O[C@H](CO)[C@@H](O)[C@@H]1O)([C]#[N+]CCCCCC(=O)N[C@H]1C(O)O[C@H](CO)[C@@H](O)[C@@H]1O)([C]#[N+]CCCCCC(=O)N[C@H]1C(O)O[C@H](CO)[C@@H](O)[C@@H]1O)[C]#[N+]CCCCCC(=O)N[C@H]1C(O)O[C@H](CO)[C@@H](O)[C@@H]1O)N[C@H]1C(O)O[C@H](CO)[C@@H](O)[C@@H]1O (stereo partly drawn); test = biodistribution; system = BALB/c nude mouse TE-1 xenograft; how to read = reference: kidney over tumour; endpoint = kidney/tumour ratio; result = 1.97
Compound = COC[C@@H](CC(C)C)NC(=O)c1ccc(C)c(CO)c1; test = LC-MS; system = human liver microsomes; setting = 10 µM of parent drug, 10 min, pH 7.4, together with: NADPH; how to read = reference: parent drug at time zero; endpoint = metabolite peak area; result = 0.8%
Compound = O=C([O-])CN1CCN(CC(=O)[O-])CCN(CC(=O)NC[C@H]2CC[C@H](C(=O)N[C@H](Cc3cnc4ccccc4c3)C(=O)NCCCC[C@H](NC(=O)N[C@@H](CCC(=O)O)C(=O)O)C(=O)O)CC2)CCN(CC(=O)[O-])CC1.[64Cu+2]; test = PET/CT dosimetry; system = healthy human volunteers, heart; endpoint = absorbed dose; result = 0.0198 mGy/MBq
Compound = CC(=O)N([O-])CCCCCNC(=O)CCC(=O)N([O-])CCCCCNC(=O)CCC(=O)N([O-])CCCCCN.[89Zr+4]; test = radio-iTLC; system = aqueous buffer; setting = 1 h, pH 7.5, 37 °C, EDTA challenge, together with: 100-fold excess EDTA; endpoint = intact complex; result = 96.6 ± 0.3%

Some of these lines once more:
Compound = CC[C@H](C)[C@H](NC(=O)[C@H](CCC(=O)O)NC(=O)[C@H](CC(C)C)NC(=O)[C@H](CC(=O)O)NC(=O)[C@H](CC(=O)O)NC(=O)[C@@H]1CCCN1C(=O)[C@H](CCCNC(=N)N)NC(=O)[C@@H]1CCCN1C(=O)[C@@H](N)CCCNC(=N)N)C(=O)O; system = carbonate buffer; setting = 5 d, pH 10, 37 °C; endpoint = backbone amide stability; result = stable
Compound = COCC1CN(C2CCN(c3cc(OC)c(Nc4ncc(Br)c(Nc5ccc6c(c5P(C)(C)=O)OCCO6)n4)cc3C)CC2)C1; system = human patients; setting = oral, 10 to 240 mg once daily; endpoint = treatment-related Diarrhea, all grades; result = 22.2%
Compound = COc1cc(NC(C)=O)c2c(c1O)-c1c(OC)c(OC)cc3c1C(C2)N(C)CC3 (stereo not drawn); system = rat kidney homogenate; setting = 50 µg/mL, 4 h, room temperature, short-term storage; endpoint = remaining compound; result = 91.7 ± 2%
